Measurements of several laboratories.
Numbered parts are unrelated; each lists some results of a single study. Positions count from the first letter of the parent shown.

Study 1
Target: Histone acetyltransferase KAT6A, winged helix 1, GST fusion (KAT6A, Homo sapiens, UniProt Q92794, residues 1-85)
Technique: protein binding microarray
Form: double-stranded DNA, one strand shown
Medium: in vitro
Concentration: not given
Notes: 8-mer, flanks averaged, mean of 2 arrays, mostly near background
Baseline: not given
Reading: higher = stronger binding
Construct (chain): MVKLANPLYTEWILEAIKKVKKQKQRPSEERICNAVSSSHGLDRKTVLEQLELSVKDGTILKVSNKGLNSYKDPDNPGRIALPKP
Sequence | E-score
ATAAAACG | 0.121
ACCAGCCT | -0.163
CACGCATC | 0.231
ACTCAAGT | -0.308
ACATTCCA | -0.14
AATTAGAC | -0.311
GGGTCGTA | 0.06
AGAGTACT | -0.0627
AATGCCCC | -0.0779
TAAAGAGA | -0.187
ATCAGAGC | -0.0567
ATCATGTA | -0.182
GAGACAGA | -0.242
GGGCTCAC | -0.0413
ATAATCTG | -0.14
CGGGGCGA | 0.138
CAGCCATC | -0.0626
ACTTGAAT | -0.172
GTTTATGA | -0.127
GCATCCCC | 0.0908
AAGCCCAG | -0.243
CTCAGCCA | -0.168

Study 2
Target: ABI1, truncated, D143A, DHFR fusion (Arabidopsis thaliana)
Technique: DHFR PCA, deep sequencing
Medium: yeast
Notes: methotrexate growth selection, single substitutions
Added: (+)-ABA 0.39 µM
Baseline: wild-type fitted maximum
Reading: higher = stronger binding
Starting sequence: PYL1, truncated, DHFR fusion (Arabidopsis thaliana); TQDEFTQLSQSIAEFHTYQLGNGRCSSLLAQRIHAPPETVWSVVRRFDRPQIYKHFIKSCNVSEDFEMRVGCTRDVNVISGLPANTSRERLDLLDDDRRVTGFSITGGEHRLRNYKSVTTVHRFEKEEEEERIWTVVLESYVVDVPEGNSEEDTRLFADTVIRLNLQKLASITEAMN
Substitution | relative binding score [%]
G81R | -4.93
N77L | 39.4
R88C | 31.9
A158D | -1.08
V137R | -8.57
T120S | 75.9
Y141R | -4.82
L8E | 3.29
D153P | -17
S117F | -13.3
V143W | -20.5
I172T | 9.6
F103N | -9.48
E4A | 23.5
R132Q | 63.9
L93G | -7.31
R74T | -8.55
R99Y | 80.9
D159A | -15.3

Study 3
Target: Sal-like protein 4, full length isoform B (SALL4, Homo sapiens, UniProt Q9UJQ4-2, residues 1-616)
Technique: universal PBM
Form: double-stranded DNA, one strand shown
Medium: in vitro
Concentration: not given
Notes: 8-mer, flanks averaged, mean of replicates
Reading: higher = stronger binding
Sequence | E-score
AGACTGGA | -0.0823
ACGTTCGC | -0.17
AAAGGGTT | -0.0493
GCCAAGGC | -0.239
CGAACGTC | -0.158
ACCAGCTC | -0.16
ATAATACG | 0.286
CCGGGACA | -0.266
GTGCCTTA | -0.0107
CCTCTGCG | -0.311
CTTCAAGA | 0.187
GGCCTGTA | -0.237
AATCAATG | 0.237
CTACGCCA | -0.122
ACAGAGAG | -0.121
GGTTAGAC | -0.0676
ACAAGTAC | 0.104

Study 4
Target: CCNA2, cyclin fold, Cln2 fusion (human)
Technique: yeast growth competition, sequencing
Medium: yeast
Notes: strong parent motif
Baseline: not given
Reading: higher = stronger binding
Starting sequence: PKMYT1 docking peptide (human); SFEPRNLLSLFED; partner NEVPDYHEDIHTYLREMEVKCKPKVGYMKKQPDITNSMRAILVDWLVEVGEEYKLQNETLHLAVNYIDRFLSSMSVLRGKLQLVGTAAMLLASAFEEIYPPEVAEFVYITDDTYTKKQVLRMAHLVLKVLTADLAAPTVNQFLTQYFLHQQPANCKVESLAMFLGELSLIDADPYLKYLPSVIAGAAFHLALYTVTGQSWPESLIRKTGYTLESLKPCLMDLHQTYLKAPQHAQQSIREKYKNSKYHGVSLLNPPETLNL
Substitution | normalised enrichment score
SFEPRNLLSLPED [F11P] | -0.213
SFEPRNLLSLFDD [E12D] | 2.55
SFEPRNLLSLNED [F11N] | -0.222
SFEPRNFLSLFED [L7F] | -1.09
SFNPRNLLSLFED [E3N] | 2.84
SFEPRNLLSMFED [L10M] | 2.59
SPEPRNLLSLFED [F2P] | -0.535
SFEPRNGLSLFED [L7G] | -1.16
SFEPRNLFSLFED [L8F] | 1.18
SFGPRNLLSLFED [E3G] | 2.25
SFEPRNLLTLFED [S9T] | 2.67
SFEPRNLLMLFED [S9M] | 1.94
SYEPRNLLSLFED [F2Y] | 2
SFELRNLLSLFED [P4L] | -0.61
SFIPRNLLSLFED [E3I] | 3.56
SFEPRNLLSPFED [L10P] | -1.49
IFEPRNLLSLFED [S1I] | 2.62
SFEPRNLLSWFED [L10W] | 2.32
SFEPRNVLSLFED [L7V] | -0.72
SFEARNLLSLFED [P4A] | 0.116
SFEPRQLLSLFED [N6Q] | 0.842
SFEPRNLLSLFER [D13R] | 3.21
SFEPRNLLSVFED [L10V] | 1.58
SFEPRNLLSLFEL [D13L] | 2.4
SFEPRNLLSLFEI [D13I] | 2.76

Study 5
Target: Ras GTPase-activating protein-binding protein 1, full length (G3BP1, Homo sapiens, UniProt Q13283)
Chain of UniProt Q13283 (whole entry, looked up): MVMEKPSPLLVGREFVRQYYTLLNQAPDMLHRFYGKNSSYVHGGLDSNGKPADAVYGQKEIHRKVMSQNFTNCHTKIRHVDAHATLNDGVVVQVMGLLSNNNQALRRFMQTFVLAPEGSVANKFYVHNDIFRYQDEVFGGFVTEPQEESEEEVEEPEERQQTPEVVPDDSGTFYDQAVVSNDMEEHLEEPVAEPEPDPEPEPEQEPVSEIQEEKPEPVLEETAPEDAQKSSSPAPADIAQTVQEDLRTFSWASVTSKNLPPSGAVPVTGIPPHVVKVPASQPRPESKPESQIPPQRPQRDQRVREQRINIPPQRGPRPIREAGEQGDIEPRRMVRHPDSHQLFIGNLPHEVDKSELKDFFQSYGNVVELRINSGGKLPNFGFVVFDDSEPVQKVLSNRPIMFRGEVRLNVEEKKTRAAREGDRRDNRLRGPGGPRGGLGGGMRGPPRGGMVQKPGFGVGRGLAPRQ
Technique: RNA Bind-n-Seq
Form: RNA
Medium: in vitro
Concentration: 200 nM
Notes: whole 134-nt RNA, ends assumed
Added: 150 mM KCl
Baseline: input library
Reading: higher = stronger binding
Shared flanks, not repeated: GGGAGUUCUACAGUCCGACGAUC … UGGAAUUCUCGGGUGUCAAGG
Sequence | log2 enrichment
ACCAUGCAGGUGGGCAUCUUAAAGAAGUGGGGCAAGGGGGGGAUAGGGAGGGGGGUAACACUUUGGGAACAGGUGGUCCCAGGUCGUUUC | 1.37
CUCAAGUCCUGUGCUACACAUCGUAUGUACCGAAUCGGGCGGGGCGGGGCGGGGAAAGUAUUAUGUUACGCCGUUCGGAUCUGCACUUCC | 1.47
CUCAAGUCCUGUGCUACACAUCGUAUGUACCGAAUCGGAAGGGAAGGGGAAGGAAAGUAUUAUGUUACGCCGUUCGGAUCUGCACUUCCA | -0.154
UCCUGUGCUACACAUCGUAUGUACCGAAUCAAACCCAAACCCCCCCAAAUUUUUUUAAAAAAGUAUUAUGUUACGCCGUUCGGAUCUGCA | -0.0789
UACCCUCGUGCCCCUGUUUUUCCUGGCCGUGGUAGUUACUCAAACAGAGGGAACUACAACAGAGGUGGAAUGCCCAACAGAGGGAACUAC | -1.08
AGUCCUGUGCUACACAUCGUAUGUACCGAAUCGGCCCCCGGGGCCCCCGGGCCCCCGGAAAGUAUUAUGUUACGCCGUUCGGAUCUGCAC | -0.792
CAAGUCCUGUGCUACACAUCGUAUGUACCGAAUCGGGCCCCGGGCCCCGGCCCCGGAAAGUAUUAUGUUACGCCGUUCGGAUCUGCACUU | -0.829
UCCUGUGCUACACAUCGUAUGUACCGAAUCGGGGAAAAAAGGGAAAAAAGGAAAAAAGGAAAGUAUUAUGUUACGCCGUUCGGAUCUGCA | -0.332
AGUCCUGUGCUACACAUCGUAUGUACCGAAUCGGAAAAAGGAAAAAAAGGAAAAAGGAAAGUAUUAUGUUACGCCGUUCGGAUCUGCACU | -1.14
CCUGUGCUACACAUCGUAUGUACCGAAUCGGGUUUUUUGGGGUUUUUUGGGUUUUUUGGGAAAGUAUUAUGUUACGCCGUUCGGAUCUGC | -0.582
AUUAAGGUCACCGUUGCAGGCCUGGCUGGAAAAGACCCAGUACAGUGUAGCCGUGAUGUGGUCAUUUGUCCUGAUGCCAGCCUUGAAGAU | -1.14
CCUCAAGUCCUGUGCUACACAUCGUAUGUACCGAAUCGGUGGUGGGGUGGGGAAAGUAUUAUGUUACGCCGUUCGGAUCUGCACUUCCAG | 0.387
CUGUGCUACACAUCGUAUGUACCGAAUCGGGGCCCCCCCGGGCCCCCCCGGCCCCCCCGGGGAAAGUAUUAUGUUACGCCGUUCGGAUCU | -1.24
AAGUCCUGUGCUACACAUCGUAUGUACCGAAUCGGCCCCGGGGCCCCGGCCCCGGGGAAAGUAUUAUGUUACGCCGUUCGGAUCUGCACU | -1.38

Study 6
Partner: ARF9 519-638 (Arabidopsis thaliana, UniProt Q9XED8)
Technique: two-hybrid
Notes: weak activation fusion
Baseline: out of 4 tests
Reading: higher = firmer interaction
B1: IAA33 (Arabidopsis thaliana, UniProt Q9FKM7); chain MNSFEPQSQDSLQRRFHQDNSTTQQPRDTTTPFIPKPASKNHNNSNSSSGAAGRSFQGFGLNVEDDLVSSVVPPVTVVLEGRSICQRISLDKHGSYQSLASALRQMFVDGADSTDDLDLSNAIPGHLIAYEDMENDLLLAGDLTWKDFVRVAKRIRILPVKGNTRQVKRNE
B2: IAA34 (Arabidopsis thaliana, UniProt Q9C5X0); chain MYCSDPPHPLHLVASDKQQKDHKLILSWKKPTMDSDPLGVFPNSPKYHPYYSQTTEFGGVIDLGLSLRTIQHEIYHSSGQRYCSNEGYRRKWGYVKVTMDGLVVGRKVCVLDHGSYSTLAHQLEDMFGMQSVSGLRLFQMESEFCLVYRDEEGLWRNAGDVPWNEFIESVERLRITRRNDAVLPF
B3: ARF6 790-935 (Arabidopsis thaliana, UniProt Q9ZTX8); chain SENPQSNTFVKVYKSGSFGRSLDISKFSSYHELRSELARMFGLEGQLEDPVRSGWQLVFVDRENDVLLLGDDPWPEFVSSVWCIKILSPQEVQQMGKRGLELLNSAPSSNNVDKLPSNGNCDDFGNRSDPRNLGNGIASVGGSFNY
B4: ARF7 1030-1164 (Arabidopsis thaliana, UniProt P93022); chain PAQTQRMRTYTKVQKRGSVGRSIDVNRYRGYDELRHDLARMFGIEGQLEDPQTSDWKLVYVDHENDILLVGDDPWEEFVNCVQSIKILSSAEVQQMSLDGNFAGVPVTNQACSGGDSGNAWRGHYDDNSATSFNR
Target sequence (chain): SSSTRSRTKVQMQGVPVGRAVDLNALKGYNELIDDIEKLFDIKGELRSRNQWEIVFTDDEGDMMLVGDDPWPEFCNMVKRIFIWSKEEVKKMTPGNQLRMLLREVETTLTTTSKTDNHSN
Sequence | positive tests
B1 (IAA33) | 0
B2 (IAA34) | 4
B3 (ARF6 790-935) | 2
B4 (ARF7 1030-1164) | 1

Study 7
Target: NFE2L2, bZIP domain (human)
Technique: DHFR protein complementation
Medium: yeast
Notes: single substitutions, most at no-binding floor
Baseline: wild-type JUN-FOS pair
Reading: higher = stronger binding
Starting sequence: JUN, bZIP domain (human); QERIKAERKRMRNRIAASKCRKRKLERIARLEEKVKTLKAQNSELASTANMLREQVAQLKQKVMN; partner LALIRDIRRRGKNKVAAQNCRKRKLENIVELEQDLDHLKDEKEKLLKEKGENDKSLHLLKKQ
Substitution | binding fitness
K39V | -1.4 natural log
A57P | -1.55 natural log
T37Q | -1.42 natural log
S47N | -1.51 natural log
S43M | -1.51 natural log
A40Y | -1.5 natural log
I28K | -1.49 natural log
L45E | -1.52 natural log
L38K | -1.44 natural log
R53S | -1.53 natural log
M51L | -1.44 natural log
E44I | -1.53 natural log
L45Q | -1.45 natural log
L45G | -1.57 natural log
L31P | -1.46 natural log
N42D | -1.48 natural log
V56Y | -1.47 natural log

A few entries again (study 7):
Substitution | binding fitness
K39V | -1.4 natural log
A57P | -1.55 natural log
T37Q | -1.42 natural log
S47N | -1.51 natural log
S43M | -1.51 natural log
A40Y | -1.5 natural log
I28K | -1.49 natural log
L45E | -1.52 natural log
L38K | -1.44 natural log
R53S | -1.53 natural log
M51L | -1.44 natural log
E44I | -1.53 natural log
L45Q | -1.45 natural log
L45G | -1.57 natural log
L31P | -1.46 natural log
N42D | -1.48 natural log
V56Y | -1.47 natural log
